{"data": "Results pooled from the literature", "PTGS1": "Prostaglandin G/H synthase 1 (PTGS1, Homo sapiens, UniProt P23219)", "note": "Each line is one published result; not all experiments were run side by side. “And” joins repeats or separate records; there may be more than shown. ± marks the error that the study gave.", "sequence of UniProt Q13043 (whole entry, looked up)": "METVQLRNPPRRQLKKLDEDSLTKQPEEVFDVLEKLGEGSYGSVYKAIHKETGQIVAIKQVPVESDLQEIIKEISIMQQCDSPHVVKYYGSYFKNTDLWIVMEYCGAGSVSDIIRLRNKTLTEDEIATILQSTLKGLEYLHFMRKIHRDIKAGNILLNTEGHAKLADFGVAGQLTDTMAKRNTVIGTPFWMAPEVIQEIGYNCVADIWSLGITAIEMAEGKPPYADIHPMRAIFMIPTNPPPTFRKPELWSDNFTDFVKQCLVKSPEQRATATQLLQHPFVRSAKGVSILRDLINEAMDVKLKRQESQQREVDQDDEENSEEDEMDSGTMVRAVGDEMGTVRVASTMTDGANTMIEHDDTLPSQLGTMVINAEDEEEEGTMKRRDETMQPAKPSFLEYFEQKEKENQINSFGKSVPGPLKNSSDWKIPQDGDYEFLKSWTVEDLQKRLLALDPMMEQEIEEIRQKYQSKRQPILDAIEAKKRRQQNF", "sequence of UniProt P51812 (whole entry, looked up)": "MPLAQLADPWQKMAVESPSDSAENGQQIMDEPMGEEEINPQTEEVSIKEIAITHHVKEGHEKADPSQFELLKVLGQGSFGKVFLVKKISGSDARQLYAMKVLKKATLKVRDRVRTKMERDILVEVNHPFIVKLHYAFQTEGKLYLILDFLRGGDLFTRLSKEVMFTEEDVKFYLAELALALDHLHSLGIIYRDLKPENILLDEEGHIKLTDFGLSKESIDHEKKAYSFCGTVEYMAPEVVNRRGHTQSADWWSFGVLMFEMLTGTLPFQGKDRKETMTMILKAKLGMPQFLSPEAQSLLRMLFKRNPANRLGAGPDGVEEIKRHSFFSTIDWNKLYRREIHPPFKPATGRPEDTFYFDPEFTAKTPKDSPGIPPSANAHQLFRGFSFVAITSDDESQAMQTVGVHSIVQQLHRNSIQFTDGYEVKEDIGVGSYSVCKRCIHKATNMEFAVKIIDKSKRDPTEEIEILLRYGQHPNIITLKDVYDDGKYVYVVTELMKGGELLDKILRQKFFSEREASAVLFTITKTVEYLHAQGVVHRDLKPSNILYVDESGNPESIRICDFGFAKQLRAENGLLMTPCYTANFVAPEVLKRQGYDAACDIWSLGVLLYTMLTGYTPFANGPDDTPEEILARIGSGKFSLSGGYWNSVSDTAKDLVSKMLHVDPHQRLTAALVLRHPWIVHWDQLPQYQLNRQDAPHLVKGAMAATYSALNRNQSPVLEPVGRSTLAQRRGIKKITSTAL", "sequence of UniProt P08170 (whole entry, looked up)": "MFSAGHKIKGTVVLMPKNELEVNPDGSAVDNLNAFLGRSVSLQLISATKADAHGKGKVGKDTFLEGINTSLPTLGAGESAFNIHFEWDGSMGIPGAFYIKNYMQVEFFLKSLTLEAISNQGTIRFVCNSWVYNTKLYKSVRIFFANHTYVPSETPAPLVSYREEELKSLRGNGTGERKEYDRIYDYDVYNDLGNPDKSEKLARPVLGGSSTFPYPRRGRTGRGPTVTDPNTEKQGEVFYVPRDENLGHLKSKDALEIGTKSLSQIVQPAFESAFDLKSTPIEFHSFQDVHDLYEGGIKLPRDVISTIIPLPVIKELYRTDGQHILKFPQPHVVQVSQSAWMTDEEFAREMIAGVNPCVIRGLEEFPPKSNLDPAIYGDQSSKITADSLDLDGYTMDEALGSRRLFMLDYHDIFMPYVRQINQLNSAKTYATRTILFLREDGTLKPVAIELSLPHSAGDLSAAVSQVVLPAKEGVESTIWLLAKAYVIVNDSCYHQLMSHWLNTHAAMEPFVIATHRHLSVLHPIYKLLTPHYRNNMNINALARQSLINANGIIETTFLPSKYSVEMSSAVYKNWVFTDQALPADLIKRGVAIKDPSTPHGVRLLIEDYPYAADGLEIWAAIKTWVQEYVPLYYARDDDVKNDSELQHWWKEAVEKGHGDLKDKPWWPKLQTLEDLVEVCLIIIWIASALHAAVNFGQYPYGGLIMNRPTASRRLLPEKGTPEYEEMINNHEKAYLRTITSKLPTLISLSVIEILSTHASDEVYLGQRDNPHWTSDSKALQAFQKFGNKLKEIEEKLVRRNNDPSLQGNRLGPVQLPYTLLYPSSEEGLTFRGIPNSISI", "sequence of UniProt P23219 (whole entry, looked up)": "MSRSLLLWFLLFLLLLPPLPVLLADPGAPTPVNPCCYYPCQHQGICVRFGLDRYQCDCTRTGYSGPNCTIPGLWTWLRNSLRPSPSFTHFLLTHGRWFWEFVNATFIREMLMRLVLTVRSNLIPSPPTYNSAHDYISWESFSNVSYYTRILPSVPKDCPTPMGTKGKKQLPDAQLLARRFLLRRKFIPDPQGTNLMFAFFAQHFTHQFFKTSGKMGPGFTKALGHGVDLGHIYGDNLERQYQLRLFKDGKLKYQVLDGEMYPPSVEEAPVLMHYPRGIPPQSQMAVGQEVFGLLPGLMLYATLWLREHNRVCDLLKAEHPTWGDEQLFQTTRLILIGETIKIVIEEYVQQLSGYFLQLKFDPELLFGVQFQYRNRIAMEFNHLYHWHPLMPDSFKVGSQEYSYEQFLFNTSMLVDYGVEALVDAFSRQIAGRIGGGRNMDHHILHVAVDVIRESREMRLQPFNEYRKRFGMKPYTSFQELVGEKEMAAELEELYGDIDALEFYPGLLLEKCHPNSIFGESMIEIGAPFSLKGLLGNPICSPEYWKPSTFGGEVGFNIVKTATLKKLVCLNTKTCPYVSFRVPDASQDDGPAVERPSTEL", "sequence of UniProt Q9HCG7 (whole entry, looked up)": "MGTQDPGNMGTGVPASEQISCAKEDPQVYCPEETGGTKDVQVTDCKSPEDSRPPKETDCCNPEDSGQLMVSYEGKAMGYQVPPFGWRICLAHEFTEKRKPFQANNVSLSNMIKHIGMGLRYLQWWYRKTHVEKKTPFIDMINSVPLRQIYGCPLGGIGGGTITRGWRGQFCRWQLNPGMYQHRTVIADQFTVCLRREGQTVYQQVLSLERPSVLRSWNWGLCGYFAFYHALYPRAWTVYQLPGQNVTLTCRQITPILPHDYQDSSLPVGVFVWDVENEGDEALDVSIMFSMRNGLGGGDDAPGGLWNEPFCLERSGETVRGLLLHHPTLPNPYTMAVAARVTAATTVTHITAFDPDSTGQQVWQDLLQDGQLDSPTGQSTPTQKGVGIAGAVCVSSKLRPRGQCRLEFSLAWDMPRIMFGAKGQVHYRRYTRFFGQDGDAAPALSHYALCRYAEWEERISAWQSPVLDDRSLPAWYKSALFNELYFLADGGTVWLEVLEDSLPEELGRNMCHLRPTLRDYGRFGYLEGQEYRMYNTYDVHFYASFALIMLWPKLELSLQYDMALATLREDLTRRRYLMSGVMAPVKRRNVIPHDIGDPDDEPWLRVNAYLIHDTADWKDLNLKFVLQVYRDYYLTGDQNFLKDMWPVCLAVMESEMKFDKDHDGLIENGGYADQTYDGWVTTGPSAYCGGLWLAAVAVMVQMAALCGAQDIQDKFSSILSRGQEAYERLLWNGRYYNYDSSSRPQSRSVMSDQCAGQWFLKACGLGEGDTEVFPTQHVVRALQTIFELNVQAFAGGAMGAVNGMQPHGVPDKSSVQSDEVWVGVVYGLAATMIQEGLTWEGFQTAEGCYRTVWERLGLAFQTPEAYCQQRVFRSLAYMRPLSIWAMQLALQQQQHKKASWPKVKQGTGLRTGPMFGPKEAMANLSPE", "sequence of UniProt P52699 (whole entry, looked up)": "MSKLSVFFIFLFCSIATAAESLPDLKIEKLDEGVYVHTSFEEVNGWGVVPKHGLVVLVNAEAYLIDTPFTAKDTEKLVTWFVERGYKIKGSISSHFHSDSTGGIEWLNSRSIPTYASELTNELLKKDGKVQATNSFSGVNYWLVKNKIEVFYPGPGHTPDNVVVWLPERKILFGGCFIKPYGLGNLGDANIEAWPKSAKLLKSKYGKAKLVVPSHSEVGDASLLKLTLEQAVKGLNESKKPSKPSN", "sequence of UniProt Q96KS0 (whole entry, looked up)": "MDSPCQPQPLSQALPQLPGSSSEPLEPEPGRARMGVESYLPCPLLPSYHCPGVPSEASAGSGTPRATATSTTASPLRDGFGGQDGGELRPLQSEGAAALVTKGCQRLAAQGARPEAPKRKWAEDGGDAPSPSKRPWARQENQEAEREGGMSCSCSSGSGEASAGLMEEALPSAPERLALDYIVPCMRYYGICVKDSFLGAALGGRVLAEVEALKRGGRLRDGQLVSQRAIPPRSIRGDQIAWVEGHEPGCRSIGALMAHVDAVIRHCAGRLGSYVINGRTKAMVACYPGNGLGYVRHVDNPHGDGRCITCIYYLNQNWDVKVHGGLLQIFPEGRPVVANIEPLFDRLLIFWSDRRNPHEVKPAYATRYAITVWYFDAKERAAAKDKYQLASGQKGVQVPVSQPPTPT", "sequence of UniProt P21761 (whole entry, looked up)": "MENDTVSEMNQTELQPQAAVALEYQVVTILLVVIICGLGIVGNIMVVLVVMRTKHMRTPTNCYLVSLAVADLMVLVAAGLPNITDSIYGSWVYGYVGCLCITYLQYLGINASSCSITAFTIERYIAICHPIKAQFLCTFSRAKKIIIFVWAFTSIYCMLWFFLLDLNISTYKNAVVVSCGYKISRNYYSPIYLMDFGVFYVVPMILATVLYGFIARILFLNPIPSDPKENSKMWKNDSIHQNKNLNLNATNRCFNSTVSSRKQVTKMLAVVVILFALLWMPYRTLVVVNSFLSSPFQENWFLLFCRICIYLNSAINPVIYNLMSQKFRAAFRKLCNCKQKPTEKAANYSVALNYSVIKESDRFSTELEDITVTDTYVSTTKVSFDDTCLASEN", "sequence of UniProt Q99436 (whole entry, looked up)": "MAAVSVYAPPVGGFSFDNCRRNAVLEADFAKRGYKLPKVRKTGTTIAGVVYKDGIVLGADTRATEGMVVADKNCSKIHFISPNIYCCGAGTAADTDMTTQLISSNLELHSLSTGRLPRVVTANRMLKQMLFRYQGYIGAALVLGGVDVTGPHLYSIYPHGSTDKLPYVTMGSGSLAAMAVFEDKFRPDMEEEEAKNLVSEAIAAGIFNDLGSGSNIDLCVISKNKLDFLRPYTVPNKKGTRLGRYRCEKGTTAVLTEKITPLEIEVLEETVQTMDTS"}
{"Structure (SMILES)": "Nc1nc(Cl)nc2c1ncn2Cc1cc(OCC(F)F)cc(OC(F)F)c1", "target": "High affinity 3',5'-cyclic-AMP phosphodiesterase 7A (PDE7A, Homo sapiens, UniProt Q13946)", "test": "enzyme activity, inhibitor", "IC50": "4.85 µM"}
{"Structure (SMILES)": "O=C(c1ccccc1I)N1CCN(c2ccc(F)cc2)CC1", "target": "SEC14 (Saccharomyces cerevisiae, UniProt P24280)", "test": "enzyme activity, inhibitor, radiometric", "IC50": "> 100 µM"}
{"Structure (SMILES)": "C=CC(=O)N1CCc2ccc(-n3c(=O)ccc4cnc5ccc(-c6cnn(C)c6)cc5c43)cc21", "target": "Serine/threonine-protein kinase Nek2 (NEK2, Homo sapiens, UniProt P51955)", "test": "enzyme activity, inhibitor", "IC50": "> 10 µM"}
{"Structure (SMILES)": "Cc1nccn1-c1c[nH]n(-c2ccccn2)c1=O", "target": "Prolyl hydroxylase EGLN2 (EGLN2, Homo sapiens, UniProt Q96KS0)", "test": "enzyme activity, inhibitor, europium VBC binding", "setting": "10 µM FeSO4, 2 mM ascorbate, together with: 20 µM 2-oxoglutarate", "IC50": "15 µM"}
{"Structure (SMILES)": "Cn1cnc(C[C@H](NC(=O)c2cnccn2)C(=O)N2CCC[C@H]2C(N)=O)c1", "target": "Thyrotropin-releasing hormone receptor (Mus musculus, UniProt P21761)", "test": "ligand displacement, radioligand", "IC50": "> 50 µM"}
{"Structure (SMILES)": "COc1cc(N2CCN(C)CC2)ccc1Nc1ncc2c(n1)N(C)c1ccc(C)cc1C(=O)N2CC(F)(F)F", "target": "Mitogen-activated protein kinase 7 (MAPK7, Homo sapiens, UniProt Q13164)", "test": "enzyme activity, inhibitor, radiometric", "IC50": "> 10 µM"}
{"Structure (SMILES)": "CNC(=O)c1ccc(Oc2nc3c(c(=O)n(C)c(=O)n3C)n2CCC(C)C)cc1", "target": "Aldehyde dehydrogenase, mitochondrial (ALDH2, Homo sapiens, UniProt P05091)", "test": "enzyme activity, inhibitor", "IC50": "2.4 µM"}
{"Structure (SMILES)": "Cn1c(=O)nc2[nH]nc(-c3cc(Br)ccc3F)nc-2c1=O", "target": "Trypanothione reductase (TPR, Trypanosoma brucei brucei, UniProt P39051)", "test": "inhibitor, DTNB-coupled colourimetric", "setting": "together with: substrate at Km", "IC50": "> 100 µM"}
{"Structure (SMILES)": "O=C1CCCCC1C(C[N+](=O)[O-])c1ccccc1 (centres unmarked)", "target": "PTGS1", "test": "enzyme activity, inhibitor", "IC50": "57.4 µM"}
{"Structure (SMILES)": "Cc1nc(NC(=O)N2CCCC2)sc1-c1csc(C(C)(C)C)n1", "target": "Phosphatidylinositol 4-phosphate 3-kinase C2 domain-containing subunit alpha (PIK3C2A, Homo sapiens, UniProt O00443)", "test": "enzyme activity, inhibitor", "IC50": "> 10 µM"}
{"Structure (SMILES)": "Cn1sc(Nc2c(Cl)ccc3ncccc23)c(C#N)c1=O", "target": "NAD(+) hydrolase SARM1 (SARM1, Homo sapiens, UniProt Q6SZW1)", "test": "enzyme activity, inhibitor", "IC50": "0.16 µM"}
{"Structure (SMILES)": "O=S1(=O)O[C@@H]2[C@H](CO)[C@@H](O)[C@H](O)[C@@H](O)[C@@H]2O1", "target": "Beta-glucosidase (GBA2, Homo sapiens, UniProt Q9HCG7)", "test": "enzyme activity, inhibitor", "setting": "pH 5.8, with preincubation", "IC50": "58 µM"}
{"Structure (SMILES)": "COc1nn(-c2ccc(NC(=O)CON)cc2)c(=O)o1", "target": "Uncharacterized hydrolase SAUSA300_2518 (Staphylococcus aureus, UniProt Q2FDS6)", "test": "enzyme activity, inhibitor", "setting": "together with: 4-methylumbelliferyl substrate", "IC50": "0.3 µM"}
{"Structure (SMILES)": "N=C(N)NCCC[C@@H](NC(=O)[C@H](Cc1c[nH]cn1)NC(=O)[C@H](CO)NC(=O)[C@H](Cc1c[nH]c2ccccc12)NC(=O)[C@H](Cc1c[nH]cn1)NC(=O)[C@@H]1CCC(=O)N1)C(=O)N[C@@H](Cc1c[nH]c2ccccc12)C(=O)N[C@@H](Cc1ccc(O)cc1)C(=O)N1CCC[C@H]1C(=O)NCC(N)=O", "target": "Gonadotropin-releasing hormone receptor (Rattus norvegicus, UniProt P30969)", "test": "binding, radioligand displacement", "test system": "WPE-1-NB26-3 expressing Gonadotropin-releasing hormone receptor, whole cells", "setting": "together with: radioiodinated GnRH analogue", "IC50": "0.0009 ± 3e-05 µM"}
{"Structure (SMILES)": "CN(C(=O)c1ccn2ncc(-c3ccc(C(N)=O)cc3)c2c1)c1ccc(C#N)cn1", "target": "Cholecystokinin receptor type A (CCKAR, Homo sapiens, UniProt P32238)", "test": "cell-free assay", "IC50": "> 30 µM"}
{"Structure (SMILES)": "N#CC(=C1C=CC(=NO)C=C1)c1ccccc1 (mixture of isomers)", "target": "Casein kinase II subunit alpha (CSNK2A1, Homo sapiens, UniProt P68400)", "test": "enzyme activity, inhibitor, radiometric", "IC50": "86.8 µM"}
{"Structure (SMILES)": "CNC(=O)C(CS)N1C(=O)c2ccc(N(C)C)cc2C1=O (centres unmarked)", "target": "Metallo-beta-lactamase type 2 (Serratia marcescens, UniProt P52699)", "test": "enzyme activity, inhibitor", "setting": "pH 7.0, together with: chromacef 25 µM", "IC50": "0.48 ± 0.06 µM"}
{"Structure (SMILES)": "O=C1N=C(O)SC1=Cc1ccc(-c2cccc(C(F)(F)F)c2)o1", "target": "ADP-ribosyl cyclase/cyclic ADP-ribose hydrolase 1 (CD38, Homo sapiens, UniProt P28907)", "test": "hydrolase activity, fluorometric", "setting": "together with: ε-NAD+ substrate", "IC50": "> 100 µM"}
{"Structure (SMILES)": "Fc1ccc(NCc2cn(-c3ccccc3)nc2-c2ccc(OCc3ccccc3)cc2)cc1Cl", "target": "PTGS1", "test": "enzyme activity, inhibitor, absorbance", "IC50": "137 µM"}
{"Structure (SMILES)": "CS(=O)(=O)Oc1ccc2nc(-c3cc(-c4cnn(C5CCNCC5)c4)cnc3N)oc2c1", "target": "Tyrosine-protein kinase JAK2 (JAK2, Homo sapiens, UniProt O60674)", "test": "enzyme activity, inhibitor, TR-FRET", "IC50": "0.17 µM"}
{"Structure (SMILES)": "CNC(=O)C1CCN(c2ccccc2NC(=O)c2ccc(-c3c(C)ccc4[nH]ncc34)c(C)c2)CC1", "target": "Tyrosine-protein kinase Yes (YES1, Homo sapiens, UniProt P07947)", "test": "target engagement in cells, BRET", "IC50": "10.9 µM"}
{"Structure (SMILES)": "C=C(NC(=O)C(=C)NC(=O)c1csc(C2=NC3c4csc(n4)C4NC(=O)c5csc(n5)C(C(C)(O)C(C)O)NC(=O)C5CSC(=N5)C(=CC)NC(=O)C(C(C)O)NC(=O)c5csc(n5)C3(CC2)NC(=O)C(C)NC(=O)C(=C)NC(=O)CNC(=O)C(C(C)CC)NC2C=Cc3c(C(C)O)cc(nc3C2O)C(=O)OC4C)n1)C(N)=O (centres unmarked)", "target": "Proteasome subunit beta type-7, in 20S proteasome (PSMB7, Homo sapiens, UniProt Q99436)", "test": "trypsin-like activity, inhibitor", "test system": "purified human 20S proteasome", "setting": "37 °C, 15 min preincubation, together with: Boc-Leu-Arg-Arg-AMC", "IC50": "1.2 ± 0.1 µM"}
{"Structure (SMILES)": "CCn1c(SC(C)C(=O)NC2CCCCC2)nnc1C1CCN(C(=O)Nc2ccccc2)CC1 (centres unmarked)", "target": "Seed linoleate 13S-lipoxygenase-1 (Glycine max, UniProt P08170)", "test": "enzyme activity, inhibitor", "IC50": "< 7 µM and 4.93 µM"}
{"Structure (SMILES)": "N#C/C(=C\\c1ccc2ccncc2c1)C(N)=O", "target": "Ribosomal protein S6 kinase alpha-3, C-terminal kinase domain (RPS6KA3, Homo sapiens, UniProt P51812)", "test": "enzyme activity, inhibitor", "setting": "10 mM reduced glutathione, together with: 0.1 mM ATP, peptide substrate", "IC50": "12.7 µM"}
{"Structure (SMILES)": "N#Cc1cnc2cc(OCC3CCNCC3)c(F)cc2c1Nc1cc(F)c(OCc2cccc(Cl)n2)cc1Cl", "target": "Serine/threonine-protein kinase 4 (STK4, Homo sapiens, UniProt Q13043)", "test": "enzyme activity, inhibitor", "IC50": "0.0263 µM and 0.0255 µM"}
{"Structure (SMILES)": "CC(=O)NCCN(CCC(=O)NCCN(CCC(=O)NCCN(CCC(=O)NCCC(N)=O)C(=O)[C@@H](N)Cc1ccccc1)C(=O)[C@@H](N)CCCNC(=N)N)C(=O)[C@@H](N)CCCNC(=N)N", "target": "HIV-1 TAR RNA", "test": "Tat/TAR complex displacement, FRET", "setting": "room temperature, together with: 10 nM Tat/TAR complex", "IC50": "5.4 ± 0.8 µM"}
{"Structure (SMILES)": "COc1cc(C(=O)NC2CCC(N3CCN(C[C@H]4CC[C@](C)(C(F)(F)F)C4)CC3)CC2)c(F)cc1Nc1ncc2c(n1)N([C@H]1CCCC1(F)F)CC(F)(F)C(=O)N2C (some centres unmarked)", "target": "Serine/threonine-protein kinase PLK1 (PLK1, Homo sapiens, UniProt P53350)", "test": "enzyme activity, inhibitor, ADP detection", "IC50": "3.95e-05 µM"}
{"Structure (SMILES)": "CCC[C@@H]1O[C@@H](Oc2c(-c3ccc(O)cc3)oc3cc(O)cc(O)c3c2=O)[C@H](O)[C@H](O)[C@H]1NC(C)=O", "target": "Ribosomal protein S6 kinase alpha-3 (RPS6KA3, Homo sapiens, UniProt P51812)", "test": "enzyme activity, inhibitor", "IC50": "0.76 µM"}
{"Structure (SMILES)": "NC(=O)[C@@H]1CCNC(=O)[C@H](CCCNC(=O)c2cnccn2)NC(=O)[C@H](CC2CCCCC2)NC(=O)[C@H](C/C=C/c2ccccc2)NC(=O)/C=C\\C(=O)N1", "target": "Proto-oncogene tyrosine-protein kinase LCK (Lck, Mus musculus, UniProt P06240)", "test": "enzyme activity, inhibitor, absorbance", "IC50": "> 100 µM"}
{"note": "Repeated from above:"}
{"Structure (SMILES)": "C=C(NC(=O)C(=C)NC(=O)c1csc(C2=NC3c4csc(n4)C4NC(=O)c5csc(n5)C(C(C)(O)C(C)O)NC(=O)C5CSC(=N5)C(=CC)NC(=O)C(C(C)O)NC(=O)c5csc(n5)C3(CC2)NC(=O)C(C)NC(=O)C(=C)NC(=O)CNC(=O)C(C(C)CC)NC2C=Cc3c(C(C)O)cc(nc3C2O)C(=O)OC4C)n1)C(N)=O (centres unmarked)", "target": "Proteasome subunit beta type-7, in 20S proteasome (PSMB7, Homo sapiens, UniProt Q99436)", "test": "trypsin-like activity, inhibitor", "test system": "purified human 20S proteasome", "setting": "37 °C, 15 min preincubation, together with: Boc-Leu-Arg-Arg-AMC", "IC50": "1.2 ± 0.1 µM"}
{"Structure (SMILES)": "N=C(N)NCCC[C@@H](NC(=O)[C@H](Cc1c[nH]cn1)NC(=O)[C@H](CO)NC(=O)[C@H](Cc1c[nH]c2ccccc12)NC(=O)[C@H](Cc1c[nH]cn1)NC(=O)[C@@H]1CCC(=O)N1)C(=O)N[C@@H](Cc1c[nH]c2ccccc12)C(=O)N[C@@H](Cc1ccc(O)cc1)C(=O)N1CCC[C@H]1C(=O)NCC(N)=O", "target": "Gonadotropin-releasing hormone receptor (Rattus norvegicus, UniProt P30969)", "test": "binding, radioligand displacement", "test system": "WPE-1-NB26-3 expressing Gonadotropin-releasing hormone receptor, whole cells", "setting": "together with: radioiodinated GnRH analogue", "IC50": "0.0009 ± 3e-05 µM"}
{"Structure (SMILES)": "CNC(=O)c1ccc(Oc2nc3c(c(=O)n(C)c(=O)n3C)n2CCC(C)C)cc1", "target": "Aldehyde dehydrogenase, mitochondrial (ALDH2, Homo sapiens, UniProt P05091)", "test": "enzyme activity, inhibitor", "IC50": "2.4 µM"}
{"Structure (SMILES)": "CNC(=O)C1CCN(c2ccccc2NC(=O)c2ccc(-c3c(C)ccc4[nH]ncc34)c(C)c2)CC1", "target": "Tyrosine-protein kinase Yes (YES1, Homo sapiens, UniProt P07947)", "test": "target engagement in cells, BRET", "IC50": "10.9 µM"}
